# Published values pooled from the literature.
# Every numbered part comes from another study and shows a few of its results, in no order. “And” joins repeats or separate records; there may be more than shown. pKi: −log10 of the molar value.
# UniProt Q8TD08, sequence (whole entry, looked up): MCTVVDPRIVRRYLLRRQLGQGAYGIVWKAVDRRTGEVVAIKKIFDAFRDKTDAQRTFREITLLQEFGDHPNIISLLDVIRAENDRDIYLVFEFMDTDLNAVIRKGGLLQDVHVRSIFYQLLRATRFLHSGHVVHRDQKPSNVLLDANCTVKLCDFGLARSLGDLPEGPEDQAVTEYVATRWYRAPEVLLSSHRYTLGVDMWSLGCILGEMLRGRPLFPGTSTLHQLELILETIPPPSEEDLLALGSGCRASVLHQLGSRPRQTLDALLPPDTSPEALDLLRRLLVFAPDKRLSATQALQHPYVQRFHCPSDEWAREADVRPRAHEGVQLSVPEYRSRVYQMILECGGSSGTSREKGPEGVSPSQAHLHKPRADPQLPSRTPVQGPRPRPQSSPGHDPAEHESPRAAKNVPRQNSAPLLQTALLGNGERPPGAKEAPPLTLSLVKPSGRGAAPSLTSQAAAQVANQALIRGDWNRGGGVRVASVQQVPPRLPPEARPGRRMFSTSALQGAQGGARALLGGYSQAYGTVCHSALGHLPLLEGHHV
# UniProt Q16512, sequence (whole entry, looked up): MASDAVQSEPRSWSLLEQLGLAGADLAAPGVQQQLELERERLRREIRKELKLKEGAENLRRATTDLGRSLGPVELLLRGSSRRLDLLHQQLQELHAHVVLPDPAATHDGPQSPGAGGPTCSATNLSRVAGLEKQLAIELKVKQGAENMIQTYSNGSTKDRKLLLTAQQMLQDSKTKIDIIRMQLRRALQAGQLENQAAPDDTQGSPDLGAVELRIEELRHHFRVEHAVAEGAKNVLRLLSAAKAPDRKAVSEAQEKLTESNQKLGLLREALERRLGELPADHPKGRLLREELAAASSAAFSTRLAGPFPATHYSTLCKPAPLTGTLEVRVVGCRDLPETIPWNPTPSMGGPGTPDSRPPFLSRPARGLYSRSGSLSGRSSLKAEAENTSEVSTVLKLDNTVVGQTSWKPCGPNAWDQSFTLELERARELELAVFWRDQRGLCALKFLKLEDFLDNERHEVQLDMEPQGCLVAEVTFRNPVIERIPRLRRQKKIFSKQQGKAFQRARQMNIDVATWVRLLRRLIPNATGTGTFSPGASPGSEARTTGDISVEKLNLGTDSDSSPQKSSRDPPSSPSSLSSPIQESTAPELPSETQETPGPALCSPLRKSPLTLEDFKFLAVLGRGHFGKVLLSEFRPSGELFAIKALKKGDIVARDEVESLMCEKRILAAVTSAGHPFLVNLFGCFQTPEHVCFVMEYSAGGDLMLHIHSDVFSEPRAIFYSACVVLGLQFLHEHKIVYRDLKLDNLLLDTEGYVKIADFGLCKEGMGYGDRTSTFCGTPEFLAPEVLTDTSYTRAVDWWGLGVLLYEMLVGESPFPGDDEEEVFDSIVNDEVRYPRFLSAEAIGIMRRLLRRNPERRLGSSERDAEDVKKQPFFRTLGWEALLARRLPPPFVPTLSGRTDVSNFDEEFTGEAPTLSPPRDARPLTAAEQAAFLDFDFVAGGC
# UniProt P53350, sequence (whole entry, looked up): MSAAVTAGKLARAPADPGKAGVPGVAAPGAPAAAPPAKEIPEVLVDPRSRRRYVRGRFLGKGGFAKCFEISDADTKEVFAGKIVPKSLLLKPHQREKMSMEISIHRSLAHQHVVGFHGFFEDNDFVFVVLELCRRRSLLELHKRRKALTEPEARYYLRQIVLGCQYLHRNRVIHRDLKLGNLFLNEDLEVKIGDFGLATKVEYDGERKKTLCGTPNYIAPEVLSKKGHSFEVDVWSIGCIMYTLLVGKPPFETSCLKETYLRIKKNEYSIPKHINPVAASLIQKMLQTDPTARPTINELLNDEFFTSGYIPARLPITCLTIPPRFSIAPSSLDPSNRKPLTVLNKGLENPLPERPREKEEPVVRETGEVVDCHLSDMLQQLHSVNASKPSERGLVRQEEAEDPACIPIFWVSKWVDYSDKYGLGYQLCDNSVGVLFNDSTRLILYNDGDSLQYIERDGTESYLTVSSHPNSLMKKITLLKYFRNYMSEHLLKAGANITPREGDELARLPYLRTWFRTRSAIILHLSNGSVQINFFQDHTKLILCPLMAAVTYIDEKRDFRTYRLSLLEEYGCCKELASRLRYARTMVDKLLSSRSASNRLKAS
# UniProt P35348, sequence (whole entry, looked up): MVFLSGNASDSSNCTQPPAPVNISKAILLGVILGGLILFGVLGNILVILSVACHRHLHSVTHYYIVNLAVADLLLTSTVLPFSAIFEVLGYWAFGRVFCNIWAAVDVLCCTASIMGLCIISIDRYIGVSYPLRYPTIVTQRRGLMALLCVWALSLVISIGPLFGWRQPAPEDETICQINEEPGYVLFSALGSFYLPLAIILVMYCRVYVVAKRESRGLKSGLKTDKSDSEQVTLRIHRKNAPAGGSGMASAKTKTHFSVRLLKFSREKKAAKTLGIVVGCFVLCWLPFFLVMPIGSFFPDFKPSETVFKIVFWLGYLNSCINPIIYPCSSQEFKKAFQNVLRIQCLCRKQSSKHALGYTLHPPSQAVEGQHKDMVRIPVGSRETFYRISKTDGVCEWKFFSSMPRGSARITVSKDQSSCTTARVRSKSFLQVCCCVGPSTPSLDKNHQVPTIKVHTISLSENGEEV
# UniProt Q8TDX7, sequence (whole entry, looked up): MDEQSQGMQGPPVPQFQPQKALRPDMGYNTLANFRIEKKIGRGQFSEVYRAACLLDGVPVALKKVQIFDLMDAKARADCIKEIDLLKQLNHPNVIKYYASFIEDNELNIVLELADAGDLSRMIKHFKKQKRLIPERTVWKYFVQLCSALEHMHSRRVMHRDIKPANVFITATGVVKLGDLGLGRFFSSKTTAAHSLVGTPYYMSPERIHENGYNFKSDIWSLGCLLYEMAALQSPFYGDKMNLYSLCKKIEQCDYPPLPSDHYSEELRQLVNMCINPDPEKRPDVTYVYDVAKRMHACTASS
# UniProt P09769, sequence (whole entry, looked up): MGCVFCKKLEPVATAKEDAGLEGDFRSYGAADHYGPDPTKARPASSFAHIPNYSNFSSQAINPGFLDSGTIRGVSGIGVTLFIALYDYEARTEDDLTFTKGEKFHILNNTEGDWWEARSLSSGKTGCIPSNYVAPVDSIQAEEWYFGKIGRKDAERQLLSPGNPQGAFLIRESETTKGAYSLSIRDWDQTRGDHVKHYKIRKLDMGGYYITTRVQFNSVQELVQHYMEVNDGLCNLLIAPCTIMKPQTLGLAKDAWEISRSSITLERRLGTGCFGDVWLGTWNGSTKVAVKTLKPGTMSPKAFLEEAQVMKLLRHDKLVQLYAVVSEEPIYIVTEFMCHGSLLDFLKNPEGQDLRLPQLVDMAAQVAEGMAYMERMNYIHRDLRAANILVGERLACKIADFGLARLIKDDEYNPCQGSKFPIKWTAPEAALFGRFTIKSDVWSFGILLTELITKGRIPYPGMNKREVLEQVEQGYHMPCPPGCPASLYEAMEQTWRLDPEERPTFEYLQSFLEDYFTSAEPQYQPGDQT
# UniProt Q9P1W9, sequence (whole entry, looked up): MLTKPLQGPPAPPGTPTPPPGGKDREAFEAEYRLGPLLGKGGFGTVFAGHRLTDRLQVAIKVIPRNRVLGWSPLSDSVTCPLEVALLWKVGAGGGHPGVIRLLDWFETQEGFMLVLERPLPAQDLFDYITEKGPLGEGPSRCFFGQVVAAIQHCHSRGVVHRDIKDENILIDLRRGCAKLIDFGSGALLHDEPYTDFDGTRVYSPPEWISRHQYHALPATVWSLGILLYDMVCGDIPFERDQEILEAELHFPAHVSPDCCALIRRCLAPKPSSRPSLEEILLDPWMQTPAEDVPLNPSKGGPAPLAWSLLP
# UniProt P22612, sequence (whole entry, looked up): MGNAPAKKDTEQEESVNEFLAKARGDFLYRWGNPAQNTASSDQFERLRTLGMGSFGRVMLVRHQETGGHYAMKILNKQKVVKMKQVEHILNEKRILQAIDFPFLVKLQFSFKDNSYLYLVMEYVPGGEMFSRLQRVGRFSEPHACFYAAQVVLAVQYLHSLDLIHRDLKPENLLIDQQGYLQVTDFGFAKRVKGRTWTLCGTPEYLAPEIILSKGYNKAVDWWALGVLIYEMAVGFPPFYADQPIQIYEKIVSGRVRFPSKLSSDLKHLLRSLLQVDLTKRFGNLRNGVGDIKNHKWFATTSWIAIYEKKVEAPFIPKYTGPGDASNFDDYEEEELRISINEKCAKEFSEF

# Series 1
# Target: High affinity nerve growth factor receptor (NTRK1, Homo sapiens, UniProt P04629)
# UniProt P04629, sequence (whole entry, looked up): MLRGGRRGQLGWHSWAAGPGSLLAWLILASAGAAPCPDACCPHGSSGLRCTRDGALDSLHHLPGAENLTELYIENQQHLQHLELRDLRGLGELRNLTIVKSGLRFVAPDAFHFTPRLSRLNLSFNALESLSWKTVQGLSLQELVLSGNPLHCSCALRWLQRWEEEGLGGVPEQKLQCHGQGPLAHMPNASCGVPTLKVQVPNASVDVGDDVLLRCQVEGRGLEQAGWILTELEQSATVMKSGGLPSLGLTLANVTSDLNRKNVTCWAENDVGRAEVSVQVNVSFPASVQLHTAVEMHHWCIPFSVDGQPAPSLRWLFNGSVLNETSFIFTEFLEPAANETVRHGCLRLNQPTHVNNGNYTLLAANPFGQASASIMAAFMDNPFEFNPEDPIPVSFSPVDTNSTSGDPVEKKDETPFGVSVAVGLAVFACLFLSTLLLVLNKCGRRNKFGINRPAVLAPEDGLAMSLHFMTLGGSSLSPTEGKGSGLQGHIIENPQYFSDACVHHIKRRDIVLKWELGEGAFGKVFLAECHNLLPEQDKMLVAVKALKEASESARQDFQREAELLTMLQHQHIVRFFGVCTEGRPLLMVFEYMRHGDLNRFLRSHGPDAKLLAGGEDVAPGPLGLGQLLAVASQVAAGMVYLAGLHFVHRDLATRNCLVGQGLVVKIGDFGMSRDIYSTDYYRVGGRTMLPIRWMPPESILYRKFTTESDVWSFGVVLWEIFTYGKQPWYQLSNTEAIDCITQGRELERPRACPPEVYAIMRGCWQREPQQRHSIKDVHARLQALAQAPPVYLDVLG
# Read-out: enzyme activity
# Action: inhibitor
# Concentration: 0.5 µM
# Relative to: control
SMILES,remaining activity [%]
Nc1nc(Nc2ccc(S(N)(=O)=O)cc2)nn1C(=O)c1c(F)cccc1F,98.8
O=S(=O)(NCCNC/C=C/c1ccc(Br)cc1)c1cccc2cnccc12,84.9
Oc1ccc(Nc2nc(-c3ccc(Cl)cc3)cs2)cc1,104
Cc1ccc(NC2=CC(=O)c3sc(C)nc3C2=O)cc1,80.6
O=C1NC(=O)C(c2c[nH]c3ccccc23)=C1c1c[nH]c2ccccc12,92
CC(C)(C)n1nc(Cc2cccc3ccccc23)c2c(N)ncnc21,97.8
CSc1nc(-c2ccnc(N[C@@H](C)c3ccccc3)c2)c(-c2ccc(F)cc2)[nH]1 (racemic),91.2
COc1cc(Nc2c(C#N)cnc3cc(OCCCN4CCN(C)CC4)c(OC)cc23)c(Cl)cc1Cl,106
Cc1cc(Nc2nc(-c3ccccc3)nc3ccccc23)n[nH]1,14.6
CC#CC(=O)Nc1cc2c(Nc3ccc(F)c(Cl)c3)ncnc2cn1,98.5
N#CC(=C(N)Sc1ccc(N)cc1)c1ccccc1C(F)(F)F,109
COc1ccc(S(=O)(=O)N(CCO)c2ccccc2CN(C)CC=Cc2ccc(Cl)cc2)cc1,110
Nc1ncnc2c1cnn2-c1ccccc1,96.1
Nc1nccc(-c2c(-c3ccc(F)cc3)ncn2C2CCNCC2)n1,100
Fc1ccc(-c2nc3n(c2-c2ccncc2)CCS3)cc1,99.5
CC(=O)c1ccc(N2CCOCC2)cc1O,97.2
CCCC(=O)Oc1ccc2[nH]c(C(=O)c3cc4ccccc4[nH]3)cc2c1,98.6
CC[n+]1c(/C=C/N(C)c2ccccc2)n(-c2ccccc2)c2ccc(-c3nc4ccccc4s3)cc21,99.1
NC(=O)c1ccc(N(C(N)=O)c2c(F)cccc2F)nc1-c1ccc(F)cc1F,96.3
Cc1cncc2cccc(S(=O)(=O)N3CCCN(C(=O)CN)C[C@@H]3C)c12,100
CCc1[nH]c(-c2ccc(OC)cc2)nc1-c1ccncc1,106
O=C1Cc2c([nH]c3ccc([N+](=O)[O-])cc23)-c2ccccc2N1,107

# Series 2
# Structure (SMILES): CC(=O)N[C@@H](Cc1c[nH]c2ccccc12)C(=O)N[C@@H](CCC(=O)C=[N+]=[N-])C(=O)OC(C)C
# Route: subcutaneous
# Time: 5 days
assay,test system,setting,how to read,metabolite peak intensity
"UPLC-MS/MS, measured: hydroxy-N6,N6,N6-trimethyllysine","EL4, C57BL/6 CES1-/- mice, EL4 tumour, tumour","0.3 mg/kg/day DON equivalent, normalised to tissue mass",higher = more metabolite,1.41e+06 a.u. and 1.48e+06 a.u. and 1.4e+06 a.u. and 1.07e+06 a.u. and 1.51e+06 a.u. and 1.19e+06 a.u.
"LC-MS/MS metabolomics, measured: pantoate","C57BL/6 CES1-/- mice, EL4 tumour, EL4 tumour",0.3 mg/kg/day DON equivalent,higher = more metabolite,1.61e+06 a.u. and 2.55e+06 a.u. and 3.56e+06 a.u. and 1.38e+06 a.u. and 4.68e+06 a.u. and 721000 a.u.
"UPLC-MS/MS, measured: lactate","EL4, C57BL/6 CES1-/- mice, EL4 tumour, tumour","0.3 mg/kg/day DON equivalent, normalised to tissue mass",higher = more metabolite,3.45e+09 a.u. and 2.87e+09 a.u. and 2.36e+09 a.u. and 2.95e+09 a.u. and 4.27e+09 a.u. and 3.23e+09 a.u.
"UPLC-MS/MS metabolomics, measured: N-acetylthreonine","C57BL/6 CES1-/- mice, EL4 tumour, EL4 tumour","0.3 mg/kg/day DON equivalent, normalised to tissue mass",higher = more metabolite,1.86e+06 a.u. and 1.91e+06 a.u. and 1.62e+06 a.u. and 1.94e+06 a.u. and 1.74e+06 a.u.
"UPLC-MS/MS, measured: hypotaurine","EL4, C57BL/6 CES1-/- mice, EL4 tumour, tumour","0.3 mg/kg/day DON equivalent, normalised to tissue mass",higher = more metabolite,990000 a.u. and 563000 a.u. and 1.67e+06 a.u. and 1.23e+06 a.u. and 955000 a.u. and 1.62e+06 a.u.
"LC-MS/MS, measured: S-methylcysteine sulfoxide","C57BL/6 CES1-/- mice, EL4 tumour",0.3 mg/kg DON equivalent,,252000 a.u. and 46100 a.u. and 129000 a.u. and 59200 a.u. and 515000 a.u. and 443000 a.u.
"UPLC-MS/MS metabolomics, measured: N-methyl-GABA","C57BL/6 CES1-/- mice, EL4 tumour, EL4 tumour","0.3 mg/kg/day DON equivalent, normalised to tissue mass",higher = more metabolite,1.84e+06 a.u. and 3.9e+06 a.u. and 3.03e+06 a.u. and 1.46e+06 a.u. and 3.16e+06 a.u. and 2.9e+06 a.u.
"LC-MS/MS, measured: nicotinamide riboside","C57BL/6 CES1-/- mice, EL4 tumour",0.3 mg/kg DON equivalent,,1.1e+06 a.u. and 1.03e+06 a.u. and 972000 a.u. and 911000 a.u. and 931000 a.u. and 1.24e+06 a.u.

# Series 3
# SMILES: Cc1sc(C(=O)NC2COC2)cc1-n1cc(NC(=O)Nc2c(F)cccc2Cl)cn1
# Read-out: enzyme activity
# Concentration: 10 µM
target,assay,how to read,remaining activity [%]
"MAPK12 (Homo sapiens, UniProt P53778)",,relative to: untreated control,80.8
"PKN1 (Homo sapiens, UniProt Q16512)",,relative to: untreated control,73.9
"PIM2 (Homo sapiens, UniProt Q9P1W9)",,relative to: untreated control,95.5
"PLK1 (Homo sapiens, UniProt P53350)",,relative to: untreated control,104
"EPHB1 (Homo sapiens, UniProt P54762)",,relative to: untreated control,98.7
"MAP4K4 (Homo sapiens, UniProt O95819)",,relative to: untreated control,92.7
"FGR (Homo sapiens, UniProt P09769)",,relative to: untreated control,71
"MAPK15 (Homo sapiens, UniProt Q8TD08)",,relative to: untreated control,100
"NEK7 (Homo sapiens, UniProt Q8TDX7)",,relative to: untreated control,95.9
"PRKACG (Homo sapiens, UniProt P22612)",inhibitor,,99
"HIPK3 (Homo sapiens, UniProt Q9H422)",,relative to: untreated control,84.9

# Series 4
# Cell line: mouse MPNST tumor cells
# Technique: high-content immunofluorescence imaging
# Measured: nuclear SOX9
# Concentration: 10 µM
# Time: 12 h
# Notes: mean of 2 replicates
# Relative to: DMSO control
# Direction: higher = more nuclear SOX9
SMILES,nuclear SOX9 intensity
CC(C)S(=O)(=O)c1ccc2nccc(Nc3ccc4scnc4c3)c2c1,131 % of DMSO
O=C(CC1CC(c2ccc(F)cc2F)=NO1)N1CCOCC1 (stereo not shown),103 % of DMSO
CCc1ccc2c(-c3cccc(Cl)c3)nc(=O)n(CC)c2n1,103 % of DMSO
"CC(C)NCC(O)c1ccc(O)c(O)c1 (single isomer, unassigned; (+))",98.3 % of DMSO
O=C1[C@H]2CCCC[C@H]2C(=O)N1CCCCN1CCN(c2nsc3ccccc23)CC1,159 % of DMSO
CC[C@H](c1ccc(O)cc1)[C@@H](CC)c1ccc(O)cc1,110 % of DMSO
CCOc1cc(/C=C2/C(=O)N(c3ccccc3)N=C2C)cc(Cl)c1OCC(=O)OC,95.8 % of DMSO
c1cnc(N2CCN(Cc3ccc4c(c3)OCO4)CC2)nc1,94.6 % of DMSO
N#Cc1ccc(C(c2ccc(C#N)cc2)n2cncn2)cc1,94.8 % of DMSO and 94.9 % of DMSO
Cc1ncsc1-c1ccc(CNC(=O)[C@@H]2C[C@@H](O)CN2C(=O)[C@@H](NC(=O)C2(C#N)CC2)C(C)(C)C)cc1,98.1 % of DMSO
CC(C)CN(C[C@@H](O)[C@H](Cc1ccccc1)NC(=O)O[C@H]1CCOC1)S(=O)(=O)c1ccc(N)cc1,103 % of DMSO and 91.2 % of DMSO
OCCOCCN1CCN(C(c2ccccc2)c2ccc(Cl)cc2)CC1 (stereo not shown),168 % of DMSO

# Single results of other studies
Compound,target or system,assay,setting,quantity,result
COc1cc(-c2cn(C3CCc4ccccc4N(CC(F)(F)F)C3=O)nn2)ccc1-n1ccc(C)n1 (stereo not shown),"ADRA1A (Homo sapiens, UniProt P35348)",binding,,pKi,5.86
Cn1cncc1[C@@](O)(COc1ccc(C#N)cc1-c1ccc(OC(F)(F)F)cc1)c1ccc(C#N)cc1,HEK293T,high-content imaging,"10 µM, 12 h",total cell count,778 and 714
